Measured values pooled from the literature.
Every numbered part comes from another study and shows a few of its results, in no order.

Sample 1
Target: Sal-like protein 4, full length isoform A (SALL4, Homo sapiens, UniProt Q9UJQ4, residues 1-1053)
Chain of UniProt Q9UJQ4 (whole entry, looked up): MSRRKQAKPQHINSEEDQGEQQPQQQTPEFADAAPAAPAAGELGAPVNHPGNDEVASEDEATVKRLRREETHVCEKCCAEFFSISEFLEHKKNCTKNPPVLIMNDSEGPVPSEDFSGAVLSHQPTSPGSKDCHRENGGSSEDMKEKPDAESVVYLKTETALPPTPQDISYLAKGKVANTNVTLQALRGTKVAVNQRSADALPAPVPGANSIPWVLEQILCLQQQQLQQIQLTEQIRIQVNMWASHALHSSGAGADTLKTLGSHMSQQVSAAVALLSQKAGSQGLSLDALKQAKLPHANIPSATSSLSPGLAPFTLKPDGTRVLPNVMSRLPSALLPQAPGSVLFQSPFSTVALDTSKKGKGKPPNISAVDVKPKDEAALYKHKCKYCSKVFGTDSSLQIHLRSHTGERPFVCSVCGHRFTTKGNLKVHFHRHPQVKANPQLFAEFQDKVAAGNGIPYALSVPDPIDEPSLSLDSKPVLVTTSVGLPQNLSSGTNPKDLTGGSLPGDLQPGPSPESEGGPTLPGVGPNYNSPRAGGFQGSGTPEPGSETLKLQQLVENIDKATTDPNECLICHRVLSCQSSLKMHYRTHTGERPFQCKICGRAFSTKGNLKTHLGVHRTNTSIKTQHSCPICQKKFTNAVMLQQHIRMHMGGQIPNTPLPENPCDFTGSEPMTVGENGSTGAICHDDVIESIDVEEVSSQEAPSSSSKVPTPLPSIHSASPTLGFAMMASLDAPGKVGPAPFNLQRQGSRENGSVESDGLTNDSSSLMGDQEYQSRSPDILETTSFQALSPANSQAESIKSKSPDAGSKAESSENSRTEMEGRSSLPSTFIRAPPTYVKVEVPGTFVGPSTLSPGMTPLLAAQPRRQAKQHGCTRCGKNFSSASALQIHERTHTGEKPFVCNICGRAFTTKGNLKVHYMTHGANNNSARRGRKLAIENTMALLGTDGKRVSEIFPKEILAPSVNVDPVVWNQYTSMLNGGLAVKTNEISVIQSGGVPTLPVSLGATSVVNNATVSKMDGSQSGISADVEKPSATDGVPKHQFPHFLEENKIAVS
Method: universal PBM
Form: double-stranded DNA, one strand shown
Sample: in vitro
Concentration: 600 nM
Notes: 8-mer, flanks averaged, mean of replicates
Direction: higher = stronger binding
Sequence	E-score
GTCCGAAC	-0.192
ATACCGCG	-0.155
CAGGGCAG	-0.236
AAACCTTG	0.0254
AGTTGGGC	-0.0928

Sample 2
Target: Histone acetyltransferase KAT6A, both winged helices, GST fusion (KAT6A, Homo sapiens, UniProt Q92794, residues 1-181)
Method: protein binding microarray
Form: double-stranded DNA, one strand shown
Sample: in vitro
Concentration: not given
Notes: 8-mer, flanks averaged, mean of 2 arrays, mostly near background
Baseline: not given
Direction: higher = stronger binding
Target sequence (chain): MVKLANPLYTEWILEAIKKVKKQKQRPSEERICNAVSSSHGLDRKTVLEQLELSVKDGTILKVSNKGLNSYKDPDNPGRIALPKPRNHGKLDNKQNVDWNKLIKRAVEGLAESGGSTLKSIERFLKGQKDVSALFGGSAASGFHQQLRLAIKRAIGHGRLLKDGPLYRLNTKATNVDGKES
Sequence	E-score
CCATACGG	0.232
CTTAAGTC	-0.17
TGCACGCA	0.0787
GCTCAATA	-0.0479

Sample 3
Target: Centromere-binding protein 1, full length, His-tagged (CBF1, Saccharomyces cerevisiae, UniProt P17106, residues 1-351)
Chain of UniProt P17106 (whole entry, looked up): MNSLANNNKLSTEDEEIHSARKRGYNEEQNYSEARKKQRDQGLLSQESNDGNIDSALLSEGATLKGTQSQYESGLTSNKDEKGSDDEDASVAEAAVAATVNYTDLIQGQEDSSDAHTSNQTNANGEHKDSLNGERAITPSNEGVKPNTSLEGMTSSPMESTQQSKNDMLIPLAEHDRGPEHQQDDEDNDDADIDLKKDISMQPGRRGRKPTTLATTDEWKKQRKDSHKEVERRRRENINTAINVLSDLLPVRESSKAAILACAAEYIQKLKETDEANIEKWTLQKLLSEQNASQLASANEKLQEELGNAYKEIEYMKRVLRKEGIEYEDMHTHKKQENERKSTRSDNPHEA
Method: competition protein-binding microarray
Form: double-stranded DNA, one strand shown
Sample: in vitro
Concentration: 2 µM
Notes: whole 60-bp probe, lowest competitor level
Added: Pho4 competitor, 0.05 µM
Direction: higher = stronger binding
All sequences stand within: … GTCTTGATTCGCTTGACGCTGCTG
Sequence	fluorescence intensity
GCCGCCATTCCCCATCACAATTTTGGGCAGGATAGG	70.7 a.u.
CGTCCTAGTGATTTTCACGTGCTGTCCATGAGGAAG	1090 a.u.
CTAACGAAGGTTTGTCACTCAACTTACAAGCCAAGT	74.8 a.u.
CTTCTGTAAATTTGTGGTGTGGGTGGACGCGCCCCG	86.8 a.u.
CTAACGAAGGTTTGGTATGTGGGTGACAAGCCAAGT	81.2 a.u.

Single results of other studies
Molecule	target	assay	system	conditions	how to read	endpoint	result
PhoQ, residues 284 288 289 292 302 303 ASHLAV	PhoP, residues 12 14 15 18 19 LWHVM (Escherichia coli, UniProt P23836)	Sort-seq, item: YFP reporter	E. coli	PhoQ-PhoP variant library, added: 10 µM Mg2+	baseline: high Mg2+ state, higher = stronger signaling	fold induction	2.73

A few entries again (sample 3):
Sequence	fluorescence intensity
CTAACGAAGGTTTGGTATGTGGGTGACAAGCCAAGT	81.2 a.u.
